# Experimental data collected from several papers.
# Parts stem from different laboratories: compare values within a part only. Changes are numbered by the printed parent chain.
# Sequence of UniProt Q9P1W9 (whole entry, looked up): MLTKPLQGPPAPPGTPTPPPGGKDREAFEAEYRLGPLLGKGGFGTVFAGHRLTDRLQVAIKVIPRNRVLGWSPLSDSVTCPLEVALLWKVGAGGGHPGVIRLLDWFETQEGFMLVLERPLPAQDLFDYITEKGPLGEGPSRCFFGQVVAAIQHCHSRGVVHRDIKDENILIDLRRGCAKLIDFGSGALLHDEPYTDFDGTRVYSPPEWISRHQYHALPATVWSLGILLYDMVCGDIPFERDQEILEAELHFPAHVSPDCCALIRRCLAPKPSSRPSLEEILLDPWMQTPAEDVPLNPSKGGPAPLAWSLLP
# Sequence of UniProt O14936 (whole entry, looked up): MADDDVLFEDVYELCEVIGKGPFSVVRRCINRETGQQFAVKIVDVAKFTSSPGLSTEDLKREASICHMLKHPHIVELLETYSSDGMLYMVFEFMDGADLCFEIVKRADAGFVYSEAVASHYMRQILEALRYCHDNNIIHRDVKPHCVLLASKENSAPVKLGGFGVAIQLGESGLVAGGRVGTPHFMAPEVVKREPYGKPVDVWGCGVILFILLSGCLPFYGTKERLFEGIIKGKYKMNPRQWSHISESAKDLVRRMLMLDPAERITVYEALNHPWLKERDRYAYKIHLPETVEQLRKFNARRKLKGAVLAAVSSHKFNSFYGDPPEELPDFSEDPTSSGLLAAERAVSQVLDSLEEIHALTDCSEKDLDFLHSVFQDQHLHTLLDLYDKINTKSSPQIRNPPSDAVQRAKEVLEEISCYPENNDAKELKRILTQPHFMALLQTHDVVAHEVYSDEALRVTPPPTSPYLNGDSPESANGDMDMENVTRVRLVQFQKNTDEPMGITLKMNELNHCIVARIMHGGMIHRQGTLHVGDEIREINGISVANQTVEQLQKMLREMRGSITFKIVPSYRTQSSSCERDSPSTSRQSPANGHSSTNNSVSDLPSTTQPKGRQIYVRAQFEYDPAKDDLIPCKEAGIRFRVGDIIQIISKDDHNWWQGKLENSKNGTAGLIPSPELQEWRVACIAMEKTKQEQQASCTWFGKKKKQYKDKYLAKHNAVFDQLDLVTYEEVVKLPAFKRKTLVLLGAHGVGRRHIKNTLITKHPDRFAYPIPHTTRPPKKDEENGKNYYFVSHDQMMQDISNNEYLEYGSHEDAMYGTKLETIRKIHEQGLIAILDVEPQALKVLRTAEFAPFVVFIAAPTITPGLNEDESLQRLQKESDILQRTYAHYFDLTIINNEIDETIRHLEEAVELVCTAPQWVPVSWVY
# Sequence of UniProt Q96D53 (whole entry, looked up): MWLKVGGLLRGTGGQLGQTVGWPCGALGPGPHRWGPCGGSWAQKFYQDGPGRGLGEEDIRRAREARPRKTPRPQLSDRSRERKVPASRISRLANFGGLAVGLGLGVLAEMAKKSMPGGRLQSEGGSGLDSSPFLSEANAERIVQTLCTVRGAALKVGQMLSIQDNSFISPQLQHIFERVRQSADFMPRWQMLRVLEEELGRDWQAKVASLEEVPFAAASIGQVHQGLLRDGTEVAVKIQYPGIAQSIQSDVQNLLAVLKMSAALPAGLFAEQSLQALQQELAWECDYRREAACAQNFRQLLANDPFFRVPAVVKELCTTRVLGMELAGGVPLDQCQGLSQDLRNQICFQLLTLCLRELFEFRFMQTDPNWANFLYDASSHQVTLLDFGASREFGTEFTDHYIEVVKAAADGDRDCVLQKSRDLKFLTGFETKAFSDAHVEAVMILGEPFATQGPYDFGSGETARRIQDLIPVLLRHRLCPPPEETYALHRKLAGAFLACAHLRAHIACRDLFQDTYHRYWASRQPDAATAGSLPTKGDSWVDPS
# Sequence of UniProt P11802 (whole entry, looked up): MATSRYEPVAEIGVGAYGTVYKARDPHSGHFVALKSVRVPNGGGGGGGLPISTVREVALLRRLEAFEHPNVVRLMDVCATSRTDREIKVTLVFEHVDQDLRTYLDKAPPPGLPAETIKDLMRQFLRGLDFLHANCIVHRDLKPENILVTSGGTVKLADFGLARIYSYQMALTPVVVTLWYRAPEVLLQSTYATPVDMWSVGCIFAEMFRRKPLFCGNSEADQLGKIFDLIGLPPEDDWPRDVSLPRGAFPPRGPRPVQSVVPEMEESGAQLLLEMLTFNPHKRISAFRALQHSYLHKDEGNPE
# Sequence of UniProt Q9Y2K2 (whole entry, looked up): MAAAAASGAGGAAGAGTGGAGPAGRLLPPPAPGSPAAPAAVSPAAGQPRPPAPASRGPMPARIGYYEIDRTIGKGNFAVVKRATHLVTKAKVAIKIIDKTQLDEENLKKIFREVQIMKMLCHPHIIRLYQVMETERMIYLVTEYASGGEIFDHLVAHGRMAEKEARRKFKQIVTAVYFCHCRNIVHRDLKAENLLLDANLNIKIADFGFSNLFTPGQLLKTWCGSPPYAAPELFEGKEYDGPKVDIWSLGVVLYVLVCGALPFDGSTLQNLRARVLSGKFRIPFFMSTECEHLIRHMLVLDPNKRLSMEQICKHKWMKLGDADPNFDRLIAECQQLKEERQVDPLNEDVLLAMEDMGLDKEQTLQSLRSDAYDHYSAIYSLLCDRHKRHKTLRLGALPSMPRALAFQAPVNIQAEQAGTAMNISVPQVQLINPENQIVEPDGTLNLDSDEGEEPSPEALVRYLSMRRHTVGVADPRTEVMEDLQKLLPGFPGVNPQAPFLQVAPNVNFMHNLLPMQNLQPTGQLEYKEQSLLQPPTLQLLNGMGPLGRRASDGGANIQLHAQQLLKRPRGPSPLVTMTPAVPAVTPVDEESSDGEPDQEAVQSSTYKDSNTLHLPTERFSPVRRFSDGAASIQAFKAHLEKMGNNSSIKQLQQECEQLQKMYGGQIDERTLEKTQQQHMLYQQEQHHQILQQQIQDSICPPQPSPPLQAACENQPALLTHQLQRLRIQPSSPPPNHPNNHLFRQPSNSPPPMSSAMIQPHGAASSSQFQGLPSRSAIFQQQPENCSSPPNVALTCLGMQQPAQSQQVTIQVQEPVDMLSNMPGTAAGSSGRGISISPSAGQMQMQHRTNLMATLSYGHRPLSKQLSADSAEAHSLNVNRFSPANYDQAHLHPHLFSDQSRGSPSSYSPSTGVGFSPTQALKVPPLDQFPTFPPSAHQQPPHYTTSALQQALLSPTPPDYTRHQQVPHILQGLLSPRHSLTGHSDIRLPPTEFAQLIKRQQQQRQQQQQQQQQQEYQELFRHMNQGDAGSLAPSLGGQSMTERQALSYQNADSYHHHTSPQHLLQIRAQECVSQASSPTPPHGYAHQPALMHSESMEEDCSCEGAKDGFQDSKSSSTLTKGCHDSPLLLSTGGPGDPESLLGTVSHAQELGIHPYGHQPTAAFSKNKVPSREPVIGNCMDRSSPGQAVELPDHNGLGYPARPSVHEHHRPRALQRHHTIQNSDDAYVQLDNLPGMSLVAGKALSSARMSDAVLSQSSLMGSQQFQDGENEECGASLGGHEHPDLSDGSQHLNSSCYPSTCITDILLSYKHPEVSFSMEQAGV
# Sequence of UniProt Q9UF33 (whole entry, looked up): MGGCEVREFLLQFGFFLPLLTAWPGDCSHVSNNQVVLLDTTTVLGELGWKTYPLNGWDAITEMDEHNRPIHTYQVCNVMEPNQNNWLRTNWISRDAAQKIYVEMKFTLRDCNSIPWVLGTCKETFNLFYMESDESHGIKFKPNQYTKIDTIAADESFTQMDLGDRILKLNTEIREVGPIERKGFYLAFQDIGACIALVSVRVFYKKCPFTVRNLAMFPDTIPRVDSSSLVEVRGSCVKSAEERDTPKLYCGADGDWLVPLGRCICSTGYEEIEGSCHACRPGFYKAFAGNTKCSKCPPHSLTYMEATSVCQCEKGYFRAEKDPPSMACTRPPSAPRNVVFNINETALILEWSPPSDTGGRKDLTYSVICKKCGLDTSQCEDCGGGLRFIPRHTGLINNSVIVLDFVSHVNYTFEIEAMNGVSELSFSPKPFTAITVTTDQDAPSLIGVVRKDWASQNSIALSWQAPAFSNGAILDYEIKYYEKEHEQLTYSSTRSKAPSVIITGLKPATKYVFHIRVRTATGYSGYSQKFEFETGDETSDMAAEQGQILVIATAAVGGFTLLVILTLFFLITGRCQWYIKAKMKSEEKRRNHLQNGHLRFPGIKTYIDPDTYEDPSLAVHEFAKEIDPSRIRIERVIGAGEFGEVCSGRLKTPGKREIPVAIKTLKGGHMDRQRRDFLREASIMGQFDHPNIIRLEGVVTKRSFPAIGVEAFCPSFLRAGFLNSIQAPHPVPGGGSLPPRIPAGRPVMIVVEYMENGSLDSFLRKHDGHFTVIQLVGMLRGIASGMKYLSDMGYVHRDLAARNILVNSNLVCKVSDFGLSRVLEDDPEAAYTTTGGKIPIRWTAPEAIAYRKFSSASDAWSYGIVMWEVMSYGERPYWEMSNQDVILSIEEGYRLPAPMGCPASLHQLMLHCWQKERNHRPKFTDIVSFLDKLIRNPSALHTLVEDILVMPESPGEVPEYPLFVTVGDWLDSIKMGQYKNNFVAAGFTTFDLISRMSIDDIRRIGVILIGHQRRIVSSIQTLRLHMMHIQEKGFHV
# Sequence of UniProt P23443 (whole entry, looked up): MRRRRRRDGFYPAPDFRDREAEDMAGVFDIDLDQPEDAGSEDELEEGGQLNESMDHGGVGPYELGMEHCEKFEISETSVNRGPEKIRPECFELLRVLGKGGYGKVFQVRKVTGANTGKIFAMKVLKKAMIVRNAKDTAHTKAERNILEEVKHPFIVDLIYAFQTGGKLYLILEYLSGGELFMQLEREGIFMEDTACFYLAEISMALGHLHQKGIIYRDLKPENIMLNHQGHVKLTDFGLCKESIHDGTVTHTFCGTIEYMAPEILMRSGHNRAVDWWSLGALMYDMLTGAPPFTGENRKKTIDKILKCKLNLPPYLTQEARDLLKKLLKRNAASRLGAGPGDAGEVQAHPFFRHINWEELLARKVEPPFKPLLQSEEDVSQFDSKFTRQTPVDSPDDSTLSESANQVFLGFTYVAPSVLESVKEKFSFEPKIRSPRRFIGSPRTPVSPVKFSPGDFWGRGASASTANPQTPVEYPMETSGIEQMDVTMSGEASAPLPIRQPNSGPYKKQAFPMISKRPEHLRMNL

# Study 1 — organism: Sarcocystis neurona; observed: parasite growth; tested at: 10 µM; time: 96 h
Structure (SMILES),inhibition [%]
N[C@@H](C(=O)N[C@@H]1C(=O)N2C(C(=O)O)=C(CSc3c[nH]nn3)CS[C@H]12)c1ccc(O)cc1,-11.1
[H]/N=C(/NC)NCCC[C@H](N)C(=O)O,-14.5
CC(=O)OCC[N+](C)(C)C,-14.3

# Study 2 — target: CCND1, cyclin fold, Cln2 fusion (human); method: yeast growth competition, sequencing; matrix: yeast; notes: weak parent motif; relative to: not given; direction: higher = stronger binding
# Starting sequence: CDC25A docking peptide (human); PPHRRRLLFACSP; partner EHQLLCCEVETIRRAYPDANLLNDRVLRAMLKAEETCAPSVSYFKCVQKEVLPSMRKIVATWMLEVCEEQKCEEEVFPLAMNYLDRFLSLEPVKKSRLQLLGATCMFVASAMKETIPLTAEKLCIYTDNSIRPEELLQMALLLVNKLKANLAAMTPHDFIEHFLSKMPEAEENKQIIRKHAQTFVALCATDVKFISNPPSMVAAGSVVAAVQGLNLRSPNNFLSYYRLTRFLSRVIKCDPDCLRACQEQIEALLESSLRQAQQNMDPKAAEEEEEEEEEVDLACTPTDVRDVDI
Substitution,normalised enrichment score
R5F,0.365
A10K,0.386
A10D,-0.021
P13V,0.00249
P2E,0.358
R6N,0.233
R4Q,0.0868
H3S,0.447

# Study 3 — cell line: mouse MPNST tumor cells; method: high-content immunofluorescence imaging; refers to: nuclear SOX9; tested at: 10 µM; time: 12 h; notes: mean of 2 replicates; relative to: DMSO control; direction: higher = more nuclear SOX9
Compound,nuclear SOX9 intensity
CC(C)(C)NC(=O)[C@H]1CC[C@H]2[C@@H]3CC[C@H]4NC(=O)C=C[C@]4(C)[C@H]3CC[C@]12C,98.7 % of DMSO
Nc1ncnc2c1ncn2[C@@H]1O[C@H](CO)[C@@H](O)[C@H]1O,96.4 % of DMSO
CC1=C(C(=O)O)N2C(=O)[C@@H](NC(=O)[C@H](N)c3ccc(O)cc3)[C@H]2SC1,102 % of DMSO

# Study 4 — method: competition with immobilised ligand; tested at: 1 µM
# SMILES: Cc1cc(NC(=O)c2cccc(S(F)(F)(F)(F)F)c2)cc(-n2ccn3nc(-c4cccnc4)cc23)c1
target,observed,remaining binding [%]
"Serine/threonine-protein kinase SIK3 (SIK3, Homo sapiens, UniProt Q9Y2K2)",cell-free assay,100
"Serine/threonine-protein kinase pim-2 (PIM2, Homo sapiens, UniProt Q9P1W9)",cell-free assay,100
"Mitogen-activated protein kinase kinase kinase 13 (MAP3K13, Homo sapiens, UniProt O43283)",cell-free assay,100
"Ephrin type-A receptor 6 (EPHA6, Homo sapiens, UniProt Q9UF33)",cell-free assay,100
"Myosin-IIIa (MYO3A, Homo sapiens, UniProt Q8NEV4)",cell-free assay,100
"Macrophage-stimulating protein receptor (MST1R, Homo sapiens, UniProt Q04912)",cell-free assay,71
"Tyrosine-protein kinase JAK2, JH1 (JAK2, Homo sapiens, UniProt O60674)",cell-free assay,85.3
"Receptor tyrosine-protein kinase erbB-2 (ERBB2, Homo sapiens, UniProt P04626)",cell-free assay,100
"Tyrosine-protein kinase receptor Tie-1 (TIE1, Homo sapiens, UniProt P35590)",cell-free assay,34.2
"Serine/threonine-protein kinase PAK 6 (PAK6, Homo sapiens, UniProt Q9NQU5)",cell-free assay,100
"Mitogen-activated protein kinase 10 (MAPK10, Homo sapiens, UniProt P53779)",cell-free assay,64.9
"Ribosomal protein S6 kinase beta-1 (RPS6KB1, Homo sapiens, UniProt P23443)",cell-free assay,66.2
"G protein-coupled receptor kinase 4 (GRK4, Homo sapiens, UniProt P32298)",cell-free assay,100
"Mitogen-activated protein kinase 7 (MAPK7, Homo sapiens, UniProt Q13164)",cell-free assay,90
"Atypical kinase COQ8B, mitochondrial (COQ8B, Homo sapiens, UniProt Q96D53)",cell-free assay,100
"Fibroblast growth factor receptor 3 (FGFR3, Homo sapiens, UniProt P22607, G697C)",cell-free assay,100
"Cyclin-dependent kinase 4, with cyclin D1 (CDK4, Homo sapiens, UniProt P11802)",cell-free assay,82.9
"5'-AMP-activated protein kinase catalytic subunit alpha-2 (PRKAA2, Homo sapiens, UniProt P54646)",cell-free assay,100
"Tyrosine-protein kinase ABL1, phosphorylated (ABL1, Homo sapiens, UniProt P00519, E255K)",binding,66.7
"Serine/threonine-protein kinase pim-3 (PIM3, Homo sapiens, UniProt Q86V86)",cell-free assay,100
"TGF-beta receptor type-2 (TGFBR2, Homo sapiens, UniProt P37173)",cell-free assay,94.5
"Serine/threonine-protein kinase MARK2 (MARK2, Homo sapiens, UniProt Q7KZI7)",cell-free assay,100
"Tyrosine-protein kinase ABL1, phosphorylated (ABL1, Homo sapiens, UniProt P00519, T315I)",cell-free assay,60.8
"Peripheral plasma membrane protein CASK (CASK, Homo sapiens, UniProt O14936)",cell-free assay,68.1
"Serine/threonine-protein kinase tousled-like 1 (TLK1, Homo sapiens, UniProt Q9UKI8)",cell-free assay,100

# Study 5 — species: mouse; matrix: microsomes or S9; tested at: 2 µM; time: 0.5 h
SMILES,remaining compound
CS(=O)(=O)N1CCN(Cc2ccc(Oc3cccc(C(F)(F)F)c3)c3c(N)n[nH]c23)CC1,46.8%
CNc1nc(Nc2ccccc2C)c(C#N)c2c1COC(C)(C)C2,5.01%
COc1ccc(C2c3cccn3-c3sc4c(c3CN2C(=O)NC(C)C)CCCC4)cc1 (stereo not drawn),1.18%

# Study 6 — method: RNA Bind-n-Seq; molecule type: RNA; matrix: in vitro; tested at: 365 nM; relative to: no-protein control; direction: higher = stronger binding
# Target: RNA binding protein fox-1 homolog 2, RRM domain, GST-SBP tag (RBFOX2, Homo sapiens, UniProt O43251-10, residues 100-194)
# Notes: natural RNA segment, single round, ends assumed
# All sequences stand within: GGGAGUUCUACAGUCCGACGAUC … UGGAAUUCUCGGGUGCCAA
# Target sequence (chain): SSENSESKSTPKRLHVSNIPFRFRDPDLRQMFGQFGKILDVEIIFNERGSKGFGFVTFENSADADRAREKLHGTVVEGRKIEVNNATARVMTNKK
Sequence,RBNS enrichment (R)
UGAAUAGAUAUCUGCGGGGAACCUGGGGCAUUUUGGGGAACCCUGGGGUCUUUUACAGGUCAUGUUGGUUGCUGCUGCUUCUGUCAGGAAGUACCCUAGCUCCACGUACU,0.633
UCGCCUUUUCUAGUCCAGUAGAGUUGGCACCAAUCCAGCCUUAAAUGGUCCUGGGGAUGCCACCUGCUUCUAUGCUUUAUGCAUCAGGAUACUCUCAGGACGUGAGUGUU,0.304
GCAGCGAAGCCUCGGGGCCCAAGCCCCUCCCCAGCCCCCUCUCCCGGACAGACGCCUUGCCCAGGGUGUGUUUGCUGAGUGUCUUGACUACCGUGACACCACGCAUGGCC,0.816
UGUUUUCUCUCUGUCGCCUUGUUUUGUACCUGGGUCUCGCUUUACUAGACCGUCUCUGCACAAAAGUUUAAAAACUGAACCGUAUGCAGAGUUCCGAAGCAAGUCAAGUU,0.436
CAGGCCUGACGUUAAGAAUGGUGAGUGCAUAGGCAGAAUGAGGCCUGAAUAAAGAUGGGCUCUGAAAGGGGACUUCUGAGCAGGCCUAACUGUAGUCCUGGAAGUCUGAA,1.76
AGUCAAUAUAUAGUGUUGAAGUGGUAUUUCAGGCUAGGAAUUAUUCCCUUCUCUUGGAAUGUGAAGAUCUGUCGAUUCAUCCUGUCAUUAAUCCUGACAUACAGAACAAA,0.247
UCGGCUUGGCUGGAAGACAGGGUGUGAGUGCGACAACAGGGGCACAGGUUGGGUUUGCCAAACGUCUAAUUACCAAGCCAGGAUUUGUGCCAACAAAGCCACAUGGCUGU,0.577
UUUGCACCCCGGCAUCAGCACAGGGGUCCCUGCCCCACCCUCCGGCAGCUCAGGGAGUGUUUUCCUGUGAGGCCUCCCCCAUCAGUGGACCAGAGGGAGAAGCCCGAUGC,0.45

# Further values, each from its own experiment
Compound,target,action,measurement,value
COc1ccc2[nH]cc(C3CCN(CC(O)COc4ccccc4)CC3)c2c1 (stereo not drawn),"Beta-1 adrenergic receptor (ADRB1, Homo sapiens, UniProt P08588)",antagonist,IC50,≥ 100 µM

# Excerpt of the above (study 4):
target,observed,remaining binding [%]
"Serine/threonine-protein kinase PAK 6 (PAK6, Homo sapiens, UniProt Q9NQU5)",cell-free assay,100
"G protein-coupled receptor kinase 4 (GRK4, Homo sapiens, UniProt P32298)",cell-free assay,100
"Serine/threonine-protein kinase pim-2 (PIM2, Homo sapiens, UniProt Q9P1W9)",cell-free assay,100
"Serine/threonine-protein kinase tousled-like 1 (TLK1, Homo sapiens, UniProt Q9UKI8)",cell-free assay,100
"Serine/threonine-protein kinase SIK3 (SIK3, Homo sapiens, UniProt Q9Y2K2)",cell-free assay,100
"Ephrin type-A receptor 6 (EPHA6, Homo sapiens, UniProt Q9UF33)",cell-free assay,100
